{"data": "Assay results collected from several papers", "note": "Compare with care: the assays were run in different laboratories. ± gives the spread as reported.", "sequence of UniProt Q92918 (whole entry, looked up)": "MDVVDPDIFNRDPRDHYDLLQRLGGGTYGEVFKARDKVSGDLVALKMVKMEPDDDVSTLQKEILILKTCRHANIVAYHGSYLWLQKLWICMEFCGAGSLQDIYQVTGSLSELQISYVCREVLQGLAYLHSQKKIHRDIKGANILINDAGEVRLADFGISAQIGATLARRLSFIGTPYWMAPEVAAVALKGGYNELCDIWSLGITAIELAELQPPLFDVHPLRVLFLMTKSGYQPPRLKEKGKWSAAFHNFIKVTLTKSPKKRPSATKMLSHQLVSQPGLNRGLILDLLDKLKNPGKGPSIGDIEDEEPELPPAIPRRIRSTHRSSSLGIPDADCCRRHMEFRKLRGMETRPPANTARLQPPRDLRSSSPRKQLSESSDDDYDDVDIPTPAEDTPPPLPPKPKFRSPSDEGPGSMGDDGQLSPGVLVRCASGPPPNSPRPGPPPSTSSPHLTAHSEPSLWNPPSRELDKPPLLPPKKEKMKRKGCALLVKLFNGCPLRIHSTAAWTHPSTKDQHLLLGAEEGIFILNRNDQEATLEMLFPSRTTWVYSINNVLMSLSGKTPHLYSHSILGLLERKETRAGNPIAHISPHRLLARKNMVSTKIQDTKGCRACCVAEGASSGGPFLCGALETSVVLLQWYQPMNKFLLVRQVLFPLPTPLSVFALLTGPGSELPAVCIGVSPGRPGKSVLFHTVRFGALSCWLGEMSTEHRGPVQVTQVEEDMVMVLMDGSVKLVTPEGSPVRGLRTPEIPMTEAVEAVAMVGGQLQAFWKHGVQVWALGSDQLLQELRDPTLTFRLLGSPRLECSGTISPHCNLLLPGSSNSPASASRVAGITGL"}
{"SMILES": "CCCC[C@H]1C(=O)N(C)[C@@H](CCCC)C(=O)N[C@@H](CCCNC(=O)CN2CCN(CC(=O)O)CCN(CC(=O)O)CCN(CC(=O)O)CC2)C(=O)N[C@H](C(=O)NCC(N)=O)CSCC(=O)N[C@@H](Cc2ccc(O)cc2)C(=O)N(C)[C@@H](C)C(=O)N[C@@H](CC(N)=O)C(=O)N2CCC[C@H]2C(=O)N[C@@H](Cc2c[nH]cn2)C(=O)N[C@@H](CC(C)C)C(=O)N(C)CC(=O)N[C@@H](Cc2c[nH]c3ccccc23)C(=O)N[C@@H](CO)C(=O)N[C@@H](Cc2c[nH]c3ccccc23)C(=O)N1C [gallium-68 labelled]", "test system": "NOD/SCID mice, CHO-hPD-L1 xenograft, blood", "conditions": "60 min, PBS pretreatment", "endpoint": "tissue uptake", "value": "8.15 ± 1 %ID/g"}
{"SMILES": "O=C1NC2(CC2)COc2ncc(F)cc2[C@H]2COCCN2c2ccn3ncc1c3n2", "test system": "Sprague-Dawley rat, male, serum", "conditions": "oral, 20 mg/kg/day, end of recovery, 4-week subacute toxicity", "endpoint": "serum total bilirubin", "value": "1.5 ± 0.4 µmol/L"}
{"SMILES": "CC[C@H](C)[C@H](NC(=O)[C@H](CCCNC(=N)N)NC(=O)[C@H](CCCCN)NC(=O)[C@H](Cc1ccc(O)cc1)NC(=O)[C@H](CC(=O)O)NC(=O)[C@H](C)NC(=O)CNC(=O)CCOCCOCCOCCNC(=O)CN1CCN(CC(=O)O)CCN(CC(=O)O)CCN(CC(=O)O)CC1)C(=O)N[C@H](C(=O)N[C@@H](CC(C)C)C(=O)N[C@@H](CCCCN)C(=O)N[C@H](C(=O)N[C@@H](CC(N)=O)C(N)=O)C(C)C)[C@@H](C)O [copper-64 labelled]", "assay": "ex vivo gamma counting", "test system": "C57BL/6J male mice, B16-F10 tumour, lung", "conditions": "intravenous, 1.85 MBq, 5 min", "endpoint": "tissue uptake", "value": "3.25 ± 0.101 %ID/g"}
{"SMILES": "CN(C)[C@H]1C[C@@]23CC[C@@]4(O2)C(=CC[C@]2(C)[C@@H](c5ccc6ccncc6c5)CC[C@H]24)C=C3[C@@H](O)[C@@H]1O", "target or system": "MAP4K1 (Homo sapiens, UniProt Q92918)", "assay": "ATP probe labelling, inhibitor, KiNativ profiling", "conditions": "1 µM", "endpoint": "inhibition", "value": "-19.8%"}
{"SMILES": "COc1ccccc1-c1n[nH]c2nc(NC3CCN(C(=O)Cc4ccc(F)cc4F)CC3)ncc12", "assay": "bead binding, competition bead pull-down, item: LINJ.24.2150", "test system": "Leishmania donovani extract", "conditions": "10 µM", "scale": "baseline: vehicle", "endpoint": "relative abundance", "value": 1.04}
{"SMILES": "CC[C@H](C)[C@H](NC(=O)[C@H](CCCNC(=N)N)NC(=O)[C@H](CCCCN)NC(=O)[C@H](Cc1ccc(O)cc1)NC(=O)[C@H](CC(=O)O)NC(=O)[C@H](C)NC(=O)CNC(=O)CCOCCOCCOCCNC(=O)CN1CCN(CC(=O)O)CCN(CC(=O)O)CCN(CC(=O)O)CC1)C(=O)N[C@H](C(=O)N[C@H](C(=O)N[C@@H](CCCCN)C(=O)N[C@H](C(=O)N[C@@H](CC(N)=O)C(N)=O)C(C)C)C(C)C)[C@@H](C)O [copper-64 labelled]", "assay": "ex vivo gamma counting", "test system": "C57BL/6J male mice, B16-F10 tumour, lung", "conditions": "intravenous, 1.85 MBq, 5 min", "endpoint": "tissue uptake", "value": "4.25 ± 0.638 %ID/g"}
{"SMILES": "CC[C@H](C)[C@H](NC(=O)[C@H](CCCCN)NC(=O)CNC(=O)[C@H](CC(C)C)NC(=O)[C@H](Cc1ccccc1)NC(=O)[C@H](CCCCN)NC(=O)[C@H](CO)NC(=O)[C@H](Cc1ccccc1)NC(=O)[C@H](Cc1c[nH]c2ccccc12)NC(=O)[C@H](CCC(N)=O)NC(=O)[C@@H](NC(=O)[C@H](Cc1ccccc1)NC(=O)CCCCCNC(=O)CN1CCN(CC(=O)O)CCN(CC(=O)O)CCN(CC(=O)O)CC1)C(C)C)C(=O)N[C@@H](CCC(=O)O)C(=O)N1CCC[C@H]1C(=O)N[C@@H](CC(=O)O)C(=O)N[C@H](C(=O)N[C@@H](CO)C(=O)N[C@@H](CCC(N)=O)C(=O)N[C@H](C(=O)N[C@@H](CCC(N)=O)C(=O)N[C@@H](CC(=O)O)C(=O)N1CCC[C@H]1C(=O)N[C@@H](CC(N)=O)C(=O)N[C@@H](CC(=O)O)C(=O)N[C@@H](CCC(N)=O)C(=O)N[C@@H](Cc1ccc(O)cc1)C(=O)N[C@@H](CCC(=O)O)C(=O)N1CCC[C@H]1C(=O)N[C@@H](Cc1ccccc1)C(=O)O)C(C)C)C(C)C [copper-64 labelled]", "test system": "C57BL/6 mice, male, tumour-free, kidneys", "conditions": "2 h", "endpoint": "tissue uptake", "value": "54.4 ± 9.5 %ID/g"}
{"SMILES": "CC(C)C[C@@H](NC(=O)[C@@H](CCCNC(=N)N)NC(=O)[C@@H](Cc1c[nH]cn1)NC(=O)[C@@H](Cc1c[nH]c2ccccc12)NC(=O)[C@@H](Cc1c[nH]cn1)NC(=O)[C@@H](Cc1ccccc1)NC(=O)[C@H](NC(=O)[C@@H](Cc1ccc(O)cc1)NC(=O)CNC(=O)CNC(=O)CCOCCOCCOCCNC(=O)CN1CCN(CC(=O)O)CCN(CC(=O)O)CC1)[C@H](C)O)C(=O)N[C@H](CC(N)=O)C(=O)N1CCC[C@@H]1C(=O)O [gallium-68 labelled]", "assay": "gamma counting", "test system": "C57BL/6 mice, male, blood", "conditions": "intravenous, 1.85 MBq, 120 min", "endpoint": "tissue uptake", "value": "0.69 ± 0.2 %ID/g"}
{"SMILES": "C[C@H](O)[C@@H](NC(=O)[C@H]1CCCN1C(=O)[C@@H](CCCCN)NC(=O)[C@@H](CO)NC(=O)[C@@H](Cc1ccc(O)cc1)NC(=O)[C@@H](CC(N)=O)NC(=O)CCOCCOCCOCCNC(=O)CN1CCN(CC(=O)O)CCN(CC(=O)O)CCN(CC(=O)O)CC1)C(=O)N[C@H](CC(=O)O)C(=O)N[C@H](CCCNC(=N)N)C(=O)N[C@H](CCC(N)=O)C(=O)N[C@H](Cc1ccc(O)cc1)C(=O)N[C@H](Cc1c[nH]cn1)C(=O)N[C@H](Cc1ccccc1)C(N)=O [copper-64 labelled]", "test system": "C57BL/6J mice, brain", "conditions": "intravenous, 1.85 MBq, 0.6667 h, radiolabelled", "endpoint": "tissue uptake", "value": "0.05 ± 0.01 %ID/g"}
{"SMILES": "CN1Cc2cc(Cl)ccc2-n2c(nnc2C2CCN(c3cccc([18F])n3)CC2)C1", "test system": "C57BL/6 mouse male, bone", "conditions": "intravenous, dose not given, 30 min, with: blocking agent 10 mg/kg", "endpoint": "tissue uptake", "value": "5.38 ± 2.41 %ID/g"}
{"SMILES": "CC(C)(C)C(=O)OCOP(=O)(OCOC(=O)C(C)(C)C)C1CCCN(O)C1=O (stereo not drawn)", "target or system": "SN12C", "endpoint": "log LC50", "value": "> -4 log M"}
{"SMILES": "CSCC[C@H](NC(=O)CNC(=O)[C@H](CCCCN)NC(=O)[C@H](CC(C)C)NC(=O)[C@@H]1CCCN1C(=O)[C@H](CO)NC(=O)[C@H](Cc1c[nH]cn1)NC(=O)[C@H](Cc1c[nH]c2ccccc12)NC(=O)[C@H](CCCNC(=N)N)NC(=O)[C@H](CC(C)C)NC(=O)[C@H](CCCNC(=N)N)NC(=O)[C@H](Cc1c[nH]c2ccccc12)NC(=O)[C@H](CS)NC(=O)CCCCCNC(=O)CN1CCN(CC(=O)O)CCN(CC(=O)O)CCN(CC(=O)O)CC1)C(=O)O [copper-64 labelled]", "assay": "PET", "test system": "C57BL/6J mice, B16-F10 tumour, liver", "conditions": "intravenous, 25 h", "endpoint": "tissue uptake", "value": "6.78 ± 0.36 %ID/g"}
{"note": "Repeated from above:"}
{"SMILES": "C[C@H](O)[C@@H](NC(=O)[C@H]1CCCN1C(=O)[C@@H](CCCCN)NC(=O)[C@@H](CO)NC(=O)[C@@H](Cc1ccc(O)cc1)NC(=O)[C@@H](CC(N)=O)NC(=O)CCOCCOCCOCCNC(=O)CN1CCN(CC(=O)O)CCN(CC(=O)O)CCN(CC(=O)O)CC1)C(=O)N[C@H](CC(=O)O)C(=O)N[C@H](CCCNC(=N)N)C(=O)N[C@H](CCC(N)=O)C(=O)N[C@H](Cc1ccc(O)cc1)C(=O)N[C@H](Cc1c[nH]cn1)C(=O)N[C@H](Cc1ccccc1)C(N)=O [copper-64 labelled]", "test system": "C57BL/6J mice, brain", "conditions": "intravenous, 1.85 MBq, 0.6667 h, radiolabelled", "endpoint": "tissue uptake", "value": "0.05 ± 0.01 %ID/g"}
